Measurements collected from several papers.
Protocols differ between the studies behind these lines. “And” joins repeats or separate records; there may be more than shown. Numbers after ± are the reported error.
Tln1: Tln1 309-405 (Mus musculus, UniProt P26039)
UniProt P26039, sequence (whole entry, looked up): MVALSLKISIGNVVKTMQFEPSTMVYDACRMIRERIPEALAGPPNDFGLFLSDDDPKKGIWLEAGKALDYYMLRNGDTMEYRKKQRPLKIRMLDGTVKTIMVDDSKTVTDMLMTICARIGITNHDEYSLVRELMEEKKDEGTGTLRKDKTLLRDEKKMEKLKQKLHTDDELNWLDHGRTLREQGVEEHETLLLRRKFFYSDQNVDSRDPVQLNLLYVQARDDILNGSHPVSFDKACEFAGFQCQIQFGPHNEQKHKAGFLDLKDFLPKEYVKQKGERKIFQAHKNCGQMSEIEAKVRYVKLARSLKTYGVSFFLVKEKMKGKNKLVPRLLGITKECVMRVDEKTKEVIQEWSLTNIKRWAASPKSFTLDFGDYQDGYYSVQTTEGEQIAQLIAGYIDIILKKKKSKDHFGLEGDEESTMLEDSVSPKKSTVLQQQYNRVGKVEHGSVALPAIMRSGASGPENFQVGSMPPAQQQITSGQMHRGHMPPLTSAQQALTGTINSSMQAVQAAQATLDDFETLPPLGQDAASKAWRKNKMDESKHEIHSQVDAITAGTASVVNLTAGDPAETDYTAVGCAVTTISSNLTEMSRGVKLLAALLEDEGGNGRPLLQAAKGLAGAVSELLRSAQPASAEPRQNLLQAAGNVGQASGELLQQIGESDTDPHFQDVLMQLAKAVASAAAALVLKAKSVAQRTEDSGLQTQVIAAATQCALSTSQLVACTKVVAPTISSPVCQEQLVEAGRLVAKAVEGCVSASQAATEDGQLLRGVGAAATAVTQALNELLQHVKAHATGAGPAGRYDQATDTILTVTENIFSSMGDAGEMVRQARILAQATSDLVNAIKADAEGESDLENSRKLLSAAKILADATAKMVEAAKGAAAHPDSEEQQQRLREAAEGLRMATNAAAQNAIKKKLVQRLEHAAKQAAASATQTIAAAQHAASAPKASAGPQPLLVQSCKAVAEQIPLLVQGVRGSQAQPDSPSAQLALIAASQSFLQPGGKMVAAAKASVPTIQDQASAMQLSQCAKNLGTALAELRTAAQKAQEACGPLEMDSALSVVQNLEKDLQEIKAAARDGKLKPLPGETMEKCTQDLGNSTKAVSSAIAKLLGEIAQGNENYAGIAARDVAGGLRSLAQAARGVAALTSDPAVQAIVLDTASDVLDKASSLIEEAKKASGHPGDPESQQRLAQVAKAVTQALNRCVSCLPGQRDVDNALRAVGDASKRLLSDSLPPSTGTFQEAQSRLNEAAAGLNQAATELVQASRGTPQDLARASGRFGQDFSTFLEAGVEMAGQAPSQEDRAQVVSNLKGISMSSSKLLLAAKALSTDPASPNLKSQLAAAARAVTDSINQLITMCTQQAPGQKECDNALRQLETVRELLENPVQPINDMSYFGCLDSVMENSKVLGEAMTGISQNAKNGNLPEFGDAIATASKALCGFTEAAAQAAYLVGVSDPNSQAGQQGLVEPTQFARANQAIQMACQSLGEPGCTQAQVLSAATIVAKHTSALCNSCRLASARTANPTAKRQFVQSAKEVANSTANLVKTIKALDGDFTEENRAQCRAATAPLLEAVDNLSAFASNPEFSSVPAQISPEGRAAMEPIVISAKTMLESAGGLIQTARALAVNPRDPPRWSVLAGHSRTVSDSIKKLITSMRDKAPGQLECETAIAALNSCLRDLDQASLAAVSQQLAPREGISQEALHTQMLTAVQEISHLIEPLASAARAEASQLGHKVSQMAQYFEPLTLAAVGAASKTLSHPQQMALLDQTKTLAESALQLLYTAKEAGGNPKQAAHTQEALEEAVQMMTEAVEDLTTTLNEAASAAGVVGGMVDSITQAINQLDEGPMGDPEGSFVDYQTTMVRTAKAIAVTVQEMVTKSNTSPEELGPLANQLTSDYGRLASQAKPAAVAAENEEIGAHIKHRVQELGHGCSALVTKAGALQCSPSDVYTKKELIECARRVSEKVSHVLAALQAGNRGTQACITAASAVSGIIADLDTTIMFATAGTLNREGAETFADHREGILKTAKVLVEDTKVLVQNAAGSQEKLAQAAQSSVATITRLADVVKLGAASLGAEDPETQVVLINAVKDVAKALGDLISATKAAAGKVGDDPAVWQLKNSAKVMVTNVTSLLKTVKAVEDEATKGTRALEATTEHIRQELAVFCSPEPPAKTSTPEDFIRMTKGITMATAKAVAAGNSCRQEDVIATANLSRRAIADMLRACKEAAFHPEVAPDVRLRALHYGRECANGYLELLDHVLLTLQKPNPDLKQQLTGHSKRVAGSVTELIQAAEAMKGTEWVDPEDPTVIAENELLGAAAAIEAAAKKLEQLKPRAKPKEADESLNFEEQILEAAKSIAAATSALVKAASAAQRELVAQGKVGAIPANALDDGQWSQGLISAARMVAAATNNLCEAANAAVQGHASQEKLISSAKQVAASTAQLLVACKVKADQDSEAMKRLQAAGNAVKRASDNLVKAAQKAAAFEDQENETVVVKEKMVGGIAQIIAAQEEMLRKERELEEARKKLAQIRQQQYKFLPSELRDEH
C3: C3 996-1303 (Homo sapiens, UniProt P01024)
UniProt P01024, sequence (whole entry, looked up): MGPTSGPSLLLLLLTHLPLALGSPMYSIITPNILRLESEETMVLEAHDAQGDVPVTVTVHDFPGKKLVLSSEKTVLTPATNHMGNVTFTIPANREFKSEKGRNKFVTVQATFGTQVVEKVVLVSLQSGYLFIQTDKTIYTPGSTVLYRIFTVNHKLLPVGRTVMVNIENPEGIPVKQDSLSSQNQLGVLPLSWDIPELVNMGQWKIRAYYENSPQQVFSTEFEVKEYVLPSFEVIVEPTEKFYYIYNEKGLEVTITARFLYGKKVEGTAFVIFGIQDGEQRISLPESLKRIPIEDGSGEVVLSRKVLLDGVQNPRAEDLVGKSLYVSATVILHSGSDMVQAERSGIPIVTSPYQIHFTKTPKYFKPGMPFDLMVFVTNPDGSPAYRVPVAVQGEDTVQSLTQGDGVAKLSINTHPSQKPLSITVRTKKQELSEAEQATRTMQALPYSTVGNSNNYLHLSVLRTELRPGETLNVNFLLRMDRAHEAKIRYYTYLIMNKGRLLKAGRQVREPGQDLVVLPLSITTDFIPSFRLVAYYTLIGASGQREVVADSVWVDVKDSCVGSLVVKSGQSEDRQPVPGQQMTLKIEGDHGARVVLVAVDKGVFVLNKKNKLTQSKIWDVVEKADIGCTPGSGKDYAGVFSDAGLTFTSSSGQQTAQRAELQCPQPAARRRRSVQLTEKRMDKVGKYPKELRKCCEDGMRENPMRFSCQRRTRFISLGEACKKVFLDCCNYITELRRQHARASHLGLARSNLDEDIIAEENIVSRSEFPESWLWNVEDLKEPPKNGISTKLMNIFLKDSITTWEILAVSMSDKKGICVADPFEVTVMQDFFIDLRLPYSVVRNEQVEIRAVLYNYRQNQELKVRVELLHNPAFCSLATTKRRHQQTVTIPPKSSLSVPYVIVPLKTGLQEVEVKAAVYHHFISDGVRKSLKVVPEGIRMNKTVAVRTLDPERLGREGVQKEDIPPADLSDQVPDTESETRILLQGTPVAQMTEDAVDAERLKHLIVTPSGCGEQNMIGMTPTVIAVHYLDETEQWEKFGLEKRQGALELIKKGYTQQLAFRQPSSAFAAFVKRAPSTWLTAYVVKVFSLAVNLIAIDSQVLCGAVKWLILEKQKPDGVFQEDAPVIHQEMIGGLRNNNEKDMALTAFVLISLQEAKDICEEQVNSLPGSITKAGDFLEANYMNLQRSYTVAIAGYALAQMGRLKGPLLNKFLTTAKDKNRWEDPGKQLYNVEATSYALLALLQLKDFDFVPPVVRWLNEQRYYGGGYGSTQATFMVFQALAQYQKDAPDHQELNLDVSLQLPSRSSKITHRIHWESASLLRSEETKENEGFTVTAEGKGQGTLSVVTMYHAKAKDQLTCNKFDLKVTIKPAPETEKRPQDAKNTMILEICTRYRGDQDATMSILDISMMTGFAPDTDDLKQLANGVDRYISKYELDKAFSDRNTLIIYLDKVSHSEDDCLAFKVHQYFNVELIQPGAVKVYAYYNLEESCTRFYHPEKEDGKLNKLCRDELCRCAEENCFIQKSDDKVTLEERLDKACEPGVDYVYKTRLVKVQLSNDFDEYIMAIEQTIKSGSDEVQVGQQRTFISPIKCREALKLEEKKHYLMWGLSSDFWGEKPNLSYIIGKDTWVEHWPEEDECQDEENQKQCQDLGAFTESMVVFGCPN
CALM1: CALM1 (Homo sapiens, UniProt P0DP23)
ACTA1 F-actin: ACTA1 F-actin (Oryctolagus cuniculus, UniProt P68135)
T1: ATRX ADD domain 167-289 K251R/F284Y (Homo sapiens); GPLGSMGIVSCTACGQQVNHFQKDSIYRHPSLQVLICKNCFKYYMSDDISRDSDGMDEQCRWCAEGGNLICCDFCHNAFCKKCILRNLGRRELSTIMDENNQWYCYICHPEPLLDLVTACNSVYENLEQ
B1: EIF2AK3 105-403 (Homo sapiens, UniProt Q9NZJ5); chain LVIISTLDGRIAALDPENHGKKQWDLDVGSGSLVSSSLSKPEVFGNKMIIPSLDGALFQWDQDRESMETVPFTVESLLESSYKFGDDVVLVGGKSLTTYGLSAYSGKVRYICSALGCRQWDSDEMEQEEDILLLQRTQKTVRAVGPRSGNEKWNFSVGHFELRYIPDMETRAGFIESTFKPNENTEESKIISDVEEQEAAIMDIVIKVSVADWKVMAFSKKGGHLEWEYQFCTPIASAWLLKDGKVIPISLFDDTSYTSNDDVLEDEEDIVEAARGATENSVYLGMYRGQLYLQSSVRI
B2: CFH domains 1108-1231 V1197A (Homo sapiens, UniProt P08603); sequence looked up; chain KCGPPPPIDNGDITSFPLSVYAPASSVEYQCQNLYQLEGNKRITCRNGQWSEPPKCLHPCVISREIMENYNIALRWTAKQKLYSRTGESAEFVCKRGYRLSSRSHTLRTTCWDGKLEYPTCAKR
B3: CFH domains 1108-1231 S1191L (Homo sapiens, UniProt P08603); sequence looked up; chain KCGPPPPIDNGDITSFPLSVYAPASSVEYQCQNLYQLEGNKRITCRNGQWSEPPKCLHPCVISREIMENYNIALRWTAKQKLYLRTGESVEFVCKRGYRLSSRSHTLRTTCWDGKLEYPTCAKR
B4: Cacna1c 1647-1777 (Mus musculus, UniProt Q01815); sequence looked up; chain NALSLQAGLRTLHDIGPEIRRAISGDLTAEEELDKAMKEAVSAASEDDIFRRAGGLFGNHVTYYQSDSRGNFPQTFATQRPLHINKTGNNQADTESPSHEKLVDSTFTPSSYSSTGSNANINNANNTALGR
B5: EFR3A 721-791 (Homo sapiens, UniProt Q14156); chain SNTEEITFEALKKAIDTSGMEEQEKEKRRLVIEKFQKAPFEEIAAQCESKANLLHDRLAQILELTIRPPPS
B6: PUX9 390-469 (Arabidopsis thaliana, UniProt Q4V3D3); chain AITLLVRMPDSSRHGRRFLKSDKLKYLFDFIDAAGLVKPGTYRVVRPYPRRAFSIQDGALTFEELSLTNKQEALFLELLV
B7: MMP2 110-660 (Homo sapiens, UniProt P08253); sequence looked up; chain YNFFPRKPKWDKNQITYRIIGYTPDLDPETVDDAFARAFQVWSDVTPLRFSRIHDGEADIMINFGRWEHGDGYPFDGKDGLLAHAFAPGTGVGGDSHFDDDELWTLGEGQVVRVKYGNADGEYCKFPFLFNGKEYNSCTDTGRSDGFLWCSTTYNFEKDGKYGFCPHEALFTMGGNAEGQPCKFPFRFQGTSYDSCTTEGRTDGYRWCGTTEDYDRDKKYGFCPETAMSTVGGNSEGAPCVFPFTFLGNKYESCTSAGRSDGKMWCATTANYDDDRKWGFCPDQGYSLFLVAAHEFGHAMGLEHSQDPGALMAPIYTYTKNFRLSQDDIKGIQELYGASPDIDLGTGPTPTLGPVTPEICKQDIVFDGIAQIRGEIFFFKDRFIWRTVTPRDKPMGPLLVATFWPELPEKIDAVYEAPQEEKAVFFAGNEYWIYSASTLERGYPKPLTSLGLPPDVQRVDAAFNWSKNKKTYIFAGDKFWRYNEVKKKMDPGFPKLIADAWNAIPDNLDAVVDLQGGGHSYFFKGAYYLKLENQSLKSVKFGSIKSDWLGC
B8: RSPO4 32-137 Q65R (Homo sapiens, UniProt Q2I0M5); chain GGNCTGCIICSEENGCSTCQQRLFLFIRREGIRRYGKCLHDCPPGYFGIRGQEVNRCKKCGATCESCFSQDFCIRCKRQFYLYKGKCLPTCPPGTLAHQNTRECQGGGGGSGGGGSGGGGS
B9: PUX2 157-273 (Arabidopsis thaliana, UniProt Q9ZU93); chain DNNDNDKSEMEKLVVVYLSGKPSESSIDVLLRLFKNIVKEPENAKFRKVRMSNAKIKEAIGDVAGGVELLELVGFELKEENDEIWAVMDVPSEEQSILINKVVGYLEKRKTESSGSS
B10: BRAF kinase 448-723 K723G/P722S/S720E/L716E/S713E/Q709R/L706S/A688R/Y673S/R671A/K630S/V600E/L588N/Q562R (Homo sapiens, UniProt P15056); sequence looked up; chain DDWEIPDGQITVGQRIGSGSFGTVYKGKWHGDVAVKMLNVTAPTPQQLQAFKNEVGVLRKTRHVNILLFMGYSTKPQLAIVTQWCEGSSLYHHLHASETKFEMKKLIDIARQTARGMDYLHAKSIIHRDLKSNNIFLHEDNTVKIGDFGLATEKSRWSGSHQFEQLSGSILWMAPEVIRMQDSNPYSFQSDVYAFGIVLYELMTGQLPYSNINNRDQIIFMVGAGSLSPDLSKVRSNCPKRMKRLMAECLKKKRDERPSFPRILAEIEELARELSG
B11: dcap-1 (Caenorhabditis elegans, UniProt Q9N363); sequence looked up; chain MSDAKKKAAAELAAKNLAQLQKIDIAASKILDKMPFAAIYHIDAARKEWNQSNCEGTFFVYQRADRPYFSFLIANRNDPSDFIEPLTLNHILRHDGNFIYFYKDLASIQALWFHQIDDAQKIYNLLQKLVNRLKGSTTEQARAAKAASEAPQASVPAPTQAPAAPAQAPQMAPQAPPKVDLLQLIKSAQNPPQKSAATIEQMPPMLQKLMLKEPGAAMSADELEKDLIKSAKPHRNHLLQEFTNSTSAISLAAVSTKPLHGSEGDVESDIAEGEILEPLDASFVVGSGEQTPVLNKEQFISAIAHLMQTDDEFVSQIHQAYVSALNRRLNID
B12: MDM4 23-260 (Homo sapiens, UniProt O15151); chain GPLGSQINQVRPKLPLLKILHAAGAQGEMFTVKEVMHYLGQYIMVKQLYDQQEQHMVYCGGDLLGELLGRQSFSVKDPSPLYDMLRKNLVTLATATTDAAQTLALAQDHSMDIPSQDQLKQSAEESSTSRKRTTEDDIPTLPTSEHKCIHSREDEDLIENLAQDETSRLDLGFEEWDVAGLPWWFLGNLRSNYTPRSNGSTDLQTNQDVGTAIVSDTTDDLWFLNESVSEQLGVGIKVEAADT
B13: FLT3LG 27-185 (Homo sapiens, UniProt P49771); sequence looked up; chain TQDCSFQHSPISSDFAVKIRELSDYLLQDYPVTVASNLQDEELCGGLWRLVLAQRWMERLKTVAGSKMQGLLERVNTEIHFVTKCAFQPPPSCLRFVQTNISRLLQETSEQLVALKPWITRQNFSRCLELQCQPDSSTLPPPWSPRPLEATAPTAPQPP
B14: DTNA 458-564 (Homo sapiens, UniProt Q9Y4J8-1); sequence looked up; chain SAPDISFTIDANKQQRQLIAELENKNREILQEIQRLRLEHEQASQPTPEKAQQNPTLLAELRLLRQRKDELEQRMSALQESRRELMVQLEGLMKLLKTQGAGSPRSS
UniProt P54609, sequence (whole entry, looked up): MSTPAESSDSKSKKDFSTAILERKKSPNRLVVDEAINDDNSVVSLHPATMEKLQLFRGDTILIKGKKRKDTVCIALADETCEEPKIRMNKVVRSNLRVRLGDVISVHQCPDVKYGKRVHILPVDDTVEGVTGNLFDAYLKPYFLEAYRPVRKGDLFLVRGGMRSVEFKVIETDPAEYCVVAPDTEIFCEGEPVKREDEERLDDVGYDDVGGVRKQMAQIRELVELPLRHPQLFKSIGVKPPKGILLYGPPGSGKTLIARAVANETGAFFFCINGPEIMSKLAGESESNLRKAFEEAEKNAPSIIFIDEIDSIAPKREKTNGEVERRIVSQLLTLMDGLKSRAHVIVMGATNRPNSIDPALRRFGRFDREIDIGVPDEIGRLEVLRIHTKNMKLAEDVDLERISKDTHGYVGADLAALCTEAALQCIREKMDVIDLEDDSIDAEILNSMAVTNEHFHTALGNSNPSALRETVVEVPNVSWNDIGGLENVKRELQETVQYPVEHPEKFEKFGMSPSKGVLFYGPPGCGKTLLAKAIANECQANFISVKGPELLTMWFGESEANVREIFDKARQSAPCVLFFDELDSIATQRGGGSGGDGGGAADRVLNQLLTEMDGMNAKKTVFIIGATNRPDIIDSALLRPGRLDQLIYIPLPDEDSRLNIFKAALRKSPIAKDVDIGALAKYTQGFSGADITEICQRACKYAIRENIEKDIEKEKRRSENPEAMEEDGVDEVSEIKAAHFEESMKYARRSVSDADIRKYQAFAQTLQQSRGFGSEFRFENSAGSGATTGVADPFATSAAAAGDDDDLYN

Substance	partner	test	system	conditions	Kd
pertuzumab	ERBB2 23-646 (Homo sapiens, UniProt P04626)	SPR			0.0023 µM
B1 (EIF2AK3 105-403)	HSPA5 28-654 (Homo sapiens, UniProt P11021)	MST			2.6 ± 0.5 µM
KLLMIIHDRREFAKFEKEKMNAKWDTGENPIYKSPINNFKNPNYGRKAGL (ITGB1 752-801 Q778G (Homo sapiens, UniProt P05556-5); sequence looked up)	Tln1	NMR titration			193 µM
ARTKQTARKSTGGKAY (H3C1 1-15; K4me2)	T1, ATRX ADD domain 167-289 K251R/F284Y (Homo sapiens)	ITC	peptide		66.7 µM
B2 (CFH domains 1108-1231 V1197A)	C3	SPR			10.1 ± 0.8 µM
Diaph1 (Mus musculus, UniProt O08808)	ACTA1/Capza1/Capzb CP-capped barbed end filament, Alexa-488 label (Oryctolagus cuniculus/Mus musculus)	CP detachment from filament, mf-TIRF		apparent, hyperbolic fit, ADP-actin	0.159 µM
B3 (CFH domains 1108-1231 S1191L)	C3	SPR			4.6 ± 0.2 µM
B4 (Cacna1c 1647-1777)	Jph2 1-440 S165M (Mus musculus, UniProt Q9ET78)	ITC			5.85 µM
B5 (EFR3A 721-791)	TTC7A/FAM126A 1-308	BLI			0.000718 µM
FIYWPWADLGVPDCG (macrocyclic peptide; cyclic)	KRAS fragment (Homo sapiens)	SPR	peptide		> 10 µM
SCN2A fragment R1917A (Homo sapiens) (sequence not shown)	CALM1	fluorescence titration		together with: CaCl2	0.499 µM
ARTKQTARKS (histone H3 1-10; K4me3)	ING2 189-262 E205A (Arabidopsis thaliana, UniProt B3H615)	ITC	peptide		8.56 ± 1.34 µM
B6 (PUX9 390-469)	CDC48A 1-463 (Arabidopsis thaliana, UniProt P54609)	ITC		25 °C	6.6 ± 0.6 µM
B7 (MMP2 110-660)	TLR2 21-588 (UniProt O60603)	SPR		25 °C	0.0322 µM
B8 (RSPO4 32-137 Q65R)	LGR6 (Homo sapiens, UniProt Q9HBX8)	whole-cell binding saturation	Fc fusion, HEK293T		0.0008 µM
Palld fragment (Mus musculus) (sequence not shown)	ACTA1 F-actin	co-sedimentation			3.4 ± 0.7 µM

Substance	partner	test	system	conditions	Kd
B9 (PUX2 157-273)	CDC48A 465-809 (Arabidopsis thaliana, UniProt P54609)	ITC		25 °C	13.5 ± 2.2 µM
KRRQNLIRHFFHSKR (CDKN1A/RECQL5 chimeric PIP-box peptide; C-terminal amide)	PCNA (Homo sapiens, UniProt P12004)	SPR	peptide		> 40 µM
VASP EVH1 domain (Dictyostelium discoideum)	WASF2 20-residue peptide (Homo sapiens)	BLI			> 100 µM
EAEEPSLLKKLLLAPANTQ (PPARGC1A peptide; N-terminal 5-FAM)	PPARG 202-477 (Homo sapiens, UniProt P37231-2)	FP	peptide		0.425 µM and 1.25 µM
B10	MAP2K1 (Homo sapiens, UniProt Q02750)	BLI			0.0299 ± 0.00285 µM
B11 (dcap-1)	UFD-3, fluorescent RED-NHS label (Caenorhabditis elegans, UniProt G5EES6)	MST			0.0756 µM
PRPRPRPRPRPRPRPRPRPRPRPRPRPRPRPRPRPRPRPR ((PR)20 20 repeats; TAMRA label N-terminal)	FUS 215-526 (Homo sapiens, UniProt P35637)	fluorescence polarisation	peptide		0.0656 ± 0.0113 µM
KLLITIHDRKEFAKFEKERARAKWDTANNPLYKEATSTFTNITYRGT (ITGB3 742-788 E732K (Homo sapiens, UniProt P05106); sequence looked up)	Tln1	NMR titration			538 µM
B12 (MDM4 23-260)	TP53 1-312 (UniProt P04637)	ITC			13.8 µM
B13 (FLT3LG 27-185)	Flt3 28-544 (Mus musculus, UniProt Q00342)	SPR			13.8 µM
SPTBN2 actin-binding domain F160C (sequence not shown)	ACTA1 F-actin	co-sedimentation			< 1 µM
CALLLSAPRR (GOT2 (Gallus gallus); fluorescein label)	HSPA9 mature V482F (Homo sapiens, UniProt P38646)	FP	peptide		> 150 µM
B14 (DTNA 458-564)	DMD 3365-3685 (Homo sapiens, UniProt P11532-1)	ITC			0.98 µM
entB, 2,3-dihydroxybenzoyl thioester on PCP (Escherichia coli, UniProt P0ADI4)	EntF holo, phosphopantetheine (Escherichia coli, UniProt P11454)	SPR			0.416 µM
SCN2A fragment Q1913R (Homo sapiens) (sequence not shown)	CALM1	fluorescence titration		pH 7.4, 22 °C, together with: calcium	0.006 µM
GSGASGTSKCCYSLPATT (designed peptide)	ERBB2 23-652 (Homo sapiens, UniProt P04626)	fluorescence titration	peptide	apparent	0.15 ± 0.02 µM

For quick reference, copied from above:
Substance	partner	test	system	conditions	Kd
B6 (PUX9 390-469)	CDC48A 1-463 (Arabidopsis thaliana, UniProt P54609)	ITC		25 °C	6.6 ± 0.6 µM
GSGASGTSKCCYSLPATT (designed peptide)	ERBB2 23-652 (Homo sapiens, UniProt P04626)	fluorescence titration	peptide	apparent	0.15 ± 0.02 µM
B7 (MMP2 110-660)	TLR2 21-588 (UniProt O60603)	SPR		25 °C	0.0322 µM
